# Published values from different studies.
# Protocols differ between the studies behind these lines. ± gives the spread as reported.
# Organism: Influenza A virus
Structure (SMILES),assay,test system,setting,endpoint,value
CC1=CC[C@@H]2[C@]34CC[C@](O)(OC3)C(C)(C)[C@@H]4CC[C@@]2(C)[C@@]12Oc1cc(-c3cccnc3)oc(=O)c1[C@@H]2O,viral replication,H1N1,,IC50,9.08 µM
CC(N)C12CC3CC(CC(C3)C1)C2 (stereo not drawn),"viral cytopathic effect, MTS","MDCK, H1N1",,EC50,13.8 µM
CC(=O)N[C@H]1[C@H]([C@H](O)[C@H](O)CO)OC(SCCCCCCCCCCCCSC2(C(=O)O)C[C@H](NC(=N)N)[C@@H](NC(C)=O)[C@H]([C@H](O)[C@H](O)CO)O2)(C(=O)O)C[C@@H]1NC(=N)N (stereo partly drawn),viral replication,,,IC50,0.01 to 1 µM
NC12CC3CC(CC(C3)C1)C2,"viral cytopathic effect, MTS","MDCK, H3N2",,EC50,> 1000 µM
CC(=O)N[C@H]1[C@H]([C@H](O)[C@H](O)CO)OC(SCCOCCOCCOCCOCCOCCSC2(C(=O)O)C[C@H](NC(N)=O)[C@@H](NC(C)=O)[C@H]([C@H](O)[C@H](O)CO)O2)(C(=O)O)C[C@@H]1NC(=N)N (stereo partly drawn),,H1N1 A/California/07/2009,,IC50,0.01 to 1 µM
CCC(CC)O[C@@H]1C=C(C(=O)O)C[C@H](N)[C@H]1NC(C)=O,"viral cytopathic effect, visual CPE score","MDCK, H1N1",,EC50,2 µM
CC(=O)N[C@H]1[C@H]([C@H](O)[C@H](O)CO)OC(SCCOCCOCCOCCOCCSC2(C(=O)O)C[C@H](NC(=N)N)[C@@H](NC(C)=O)[C@H]([C@H](O)[C@H](O)CO)O2)(C(=O)O)C[C@@H]1NC(=N)N (stereo partly drawn),,H1N1 A/California/07/2009,,IC50,0.01 to 1 µM
NC(=O)c1ncn([C@@H]2O[C@H](CO)[C@@H](O)[C@H]2O)n1,viral replication,H1N1,,IC50,28.2 ± 4.36 µM
NC12CC3CC(CC(C3)C1)C2,"viral replication, MTS","MDCK, H3N2",,EC50,14.4 ± 0.55 µM
NC(=O)c1ncn([C@@H]2O[C@H](CO)[C@@H](O)[C@H]2O)n1,"viral cytopathic effect, visual CPE score","MDCK, H1N1",,EC50,9 µM
CC(=O)N[C@H]1[C@H]([C@H](O)[C@H](O)CO)OC(SCCCCCCSC2(C(=O)O)C[C@H](NC(=N)N)[C@@H](NC(C)=O)[C@H]([C@H](O)[C@H](O)CO)O2)(C(=O)O)C[C@@H]1NC(=N)N (stereo partly drawn),plaque formation,H1N1,30 min,IC50,10 µM
COc1ccc(NC(=S)NCc2cccc3cn[nH]c23)cc1OC,"viral replication, inhibitor",H1N1 PR/8,,EC50,0.247 µM

# A few entries again:
Structure (SMILES),assay,test system,setting,endpoint,value
NC12CC3CC(CC(C3)C1)C2,"viral cytopathic effect, MTS","MDCK, H3N2",,EC50,> 1000 µM
NC12CC3CC(CC(C3)C1)C2,"viral replication, MTS","MDCK, H3N2",,EC50,14.4 ± 0.55 µM
